Measurements of several laboratories.
Every numbered part comes from another study and shows a few of its results, in no order.
UniProt P07948, sequence (whole entry, looked up): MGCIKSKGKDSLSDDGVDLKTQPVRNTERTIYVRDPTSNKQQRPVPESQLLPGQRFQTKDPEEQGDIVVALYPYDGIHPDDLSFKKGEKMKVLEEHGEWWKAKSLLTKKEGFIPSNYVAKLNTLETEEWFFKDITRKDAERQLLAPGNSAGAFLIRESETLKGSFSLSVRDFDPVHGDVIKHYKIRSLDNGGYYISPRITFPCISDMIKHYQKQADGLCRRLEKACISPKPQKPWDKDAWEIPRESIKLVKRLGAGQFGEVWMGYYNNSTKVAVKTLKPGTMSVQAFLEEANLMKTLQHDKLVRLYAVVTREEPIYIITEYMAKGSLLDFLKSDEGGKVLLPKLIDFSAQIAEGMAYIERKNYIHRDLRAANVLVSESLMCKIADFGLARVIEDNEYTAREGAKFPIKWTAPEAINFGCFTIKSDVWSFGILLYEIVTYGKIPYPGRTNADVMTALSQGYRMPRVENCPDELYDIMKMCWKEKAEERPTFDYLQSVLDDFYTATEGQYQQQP
UniProt Q8NG66, sequence (whole entry, looked up): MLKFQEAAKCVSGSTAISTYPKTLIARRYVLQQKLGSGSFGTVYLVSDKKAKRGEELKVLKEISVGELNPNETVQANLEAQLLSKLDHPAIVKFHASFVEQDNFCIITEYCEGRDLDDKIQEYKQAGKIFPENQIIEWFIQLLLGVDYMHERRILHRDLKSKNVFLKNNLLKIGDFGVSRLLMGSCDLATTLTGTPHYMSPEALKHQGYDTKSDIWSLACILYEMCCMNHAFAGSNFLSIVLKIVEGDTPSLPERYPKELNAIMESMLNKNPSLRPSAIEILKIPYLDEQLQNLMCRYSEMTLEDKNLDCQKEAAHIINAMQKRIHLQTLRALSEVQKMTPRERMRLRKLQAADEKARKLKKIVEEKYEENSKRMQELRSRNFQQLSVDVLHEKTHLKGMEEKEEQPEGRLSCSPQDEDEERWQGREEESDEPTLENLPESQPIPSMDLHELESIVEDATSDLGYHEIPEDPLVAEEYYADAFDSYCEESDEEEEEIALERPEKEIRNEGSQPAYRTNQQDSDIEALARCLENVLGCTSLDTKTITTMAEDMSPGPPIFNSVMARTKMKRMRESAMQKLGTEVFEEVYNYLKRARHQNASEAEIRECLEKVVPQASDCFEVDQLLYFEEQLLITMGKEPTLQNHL
UniProt Q13557, sequence (whole entry, looked up): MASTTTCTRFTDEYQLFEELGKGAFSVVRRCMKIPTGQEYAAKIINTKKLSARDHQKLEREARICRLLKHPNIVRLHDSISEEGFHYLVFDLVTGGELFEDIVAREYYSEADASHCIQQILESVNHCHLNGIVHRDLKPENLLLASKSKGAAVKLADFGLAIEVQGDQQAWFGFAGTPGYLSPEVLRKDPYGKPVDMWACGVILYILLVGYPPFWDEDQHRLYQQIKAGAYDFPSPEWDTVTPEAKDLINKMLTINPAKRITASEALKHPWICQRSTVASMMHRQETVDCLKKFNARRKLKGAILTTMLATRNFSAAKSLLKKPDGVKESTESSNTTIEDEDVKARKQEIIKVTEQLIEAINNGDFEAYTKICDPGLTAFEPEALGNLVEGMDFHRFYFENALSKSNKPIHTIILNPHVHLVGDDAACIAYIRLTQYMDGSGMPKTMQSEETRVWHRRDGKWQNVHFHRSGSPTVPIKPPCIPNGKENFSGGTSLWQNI

Block 1 — effect on: ligand displacement; tested at: 10 µM; measurement: inhibition
Target: Alpha-1A adrenergic receptor (ADRA1A, Homo sapiens, UniProt P35348)
Residues (P35348 1-466): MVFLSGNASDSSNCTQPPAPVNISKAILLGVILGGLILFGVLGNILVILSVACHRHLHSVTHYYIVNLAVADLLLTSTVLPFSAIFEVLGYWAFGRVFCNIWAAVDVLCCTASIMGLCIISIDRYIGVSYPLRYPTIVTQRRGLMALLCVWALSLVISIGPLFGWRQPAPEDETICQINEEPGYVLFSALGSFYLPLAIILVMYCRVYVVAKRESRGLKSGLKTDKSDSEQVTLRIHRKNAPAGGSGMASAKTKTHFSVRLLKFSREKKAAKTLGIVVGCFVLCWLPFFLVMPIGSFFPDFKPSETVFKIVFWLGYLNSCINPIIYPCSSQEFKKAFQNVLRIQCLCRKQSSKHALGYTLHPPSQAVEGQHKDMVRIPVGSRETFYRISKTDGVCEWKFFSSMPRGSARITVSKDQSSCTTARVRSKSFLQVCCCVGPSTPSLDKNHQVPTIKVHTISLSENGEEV
CCC(=NO)C(C)=Cc1ccc(F)c(C)c1: -8.35%
CN1CCN(c2cnc3c(C4CCN(C(=O)c5ccc(OC(F)(F)F)cc5N)CC4)ncnc3c2)CC1: 1.11%
O=C(Nc1ccc(Oc2ccc(F)cc2)cc1)N1CCc2ncccc2[C@H]1c1ccc(F)cc1: 16.2%
Cc1c(NC(=O)c2cc(C(N)=O)nc3cc(F)ccc23)c(C(F)(F)F)nn1Cc1ccc(C#N)cc1: -5.75%
Cc1cc(Nc2nccc(C)n2)cc(-c2cnc([C@@]3(O)CC[C@H](C(=O)O)C(C)(C)C3)s2)c1: -16.9%
NS(=O)(=O)c1cc(NC(=O)Cc2ccccc2)ccc1Oc1cccc(Cl)c1: 5.04%
CO[C@H]1CC[C@H](CNc2ccc(S(=O)(=O)NC(=O)c3ccc(N4CCN(CC5=C(c6ccc(Cl)cc6)CC(C)(C)CC5)CC4)cc3Oc3cnc4[nH]ccc4c3)cc2[N+](=O)[O-])CC1: -27.7%
Cc1ccccc1Oc1cc(-n2c(=O)cc(C(F)(F)F)[nH]c2=O)c2ccccc2c1Cl: -2.81%
CC1=C(C#N)C(c2ccc3[nH]nc(C)c3c2)C(C#N)=C(C)N1: 15.6%
Cc1ccc(-c2cnc([C@@]3(O)CC[C@H](C(=O)O)C(C)(C)C3)s2)cc1Nc1cccc(C(F)(F)F)n1: -13.7%
C[C@H](c1ccnc(Nc2nc3ccc(-c4cc(N(C)C)ncn4)cc3[nH]2)c1)N1CCN(C(=O)CC(F)(F)F)CC1: 11.9%
C[C@@H](c1cccc(C#N)c1)n1cc(Cl)cc(C(N)=O)c1=N: 54.8%
Cc1noc([C@H]2C[C@@H](c3ccc(C(F)(F)F)cc3)CN(C(=O)N3CCS(=O)(=O)C3)C2)n1: -4.12%
CN(C)CC#Cc1ccc(OCCCc2sc(N3CCc4cccc(C(=O)Nc5nc6ccccc6s5)c4C3)nc2C(=O)O)c(F)c1: -19.1%
Cn1nc(C(=O)NCc2ccc(C(=O)O)cc2)cc1-c1ccc2[nH]ccc2c1: -13.8%
O=C(NCCCC1CCCCC1)c1ccc(CNC(=O)c2cnn(-c3ccccc3)c2C(F)(F)F)cc1: 17.9%
COc1cc(-c2cn(C3CCc4c(F)cccc4N(CC(F)(F)F)C3=O)nn2)ccc1-n1cnc(C)c1 (stereo not shown): 14.1%

Block 2 — effect on: enzyme activity; mode: inhibitor; tested at: 77 µM; relative to: untreated; measurement: remaining activity
Target: DNA polymerase theta, ATPase domain (POLQ, Homo sapiens, UniProt O75417)
UniProt O75417, sequence (whole entry, unmodified, looked up): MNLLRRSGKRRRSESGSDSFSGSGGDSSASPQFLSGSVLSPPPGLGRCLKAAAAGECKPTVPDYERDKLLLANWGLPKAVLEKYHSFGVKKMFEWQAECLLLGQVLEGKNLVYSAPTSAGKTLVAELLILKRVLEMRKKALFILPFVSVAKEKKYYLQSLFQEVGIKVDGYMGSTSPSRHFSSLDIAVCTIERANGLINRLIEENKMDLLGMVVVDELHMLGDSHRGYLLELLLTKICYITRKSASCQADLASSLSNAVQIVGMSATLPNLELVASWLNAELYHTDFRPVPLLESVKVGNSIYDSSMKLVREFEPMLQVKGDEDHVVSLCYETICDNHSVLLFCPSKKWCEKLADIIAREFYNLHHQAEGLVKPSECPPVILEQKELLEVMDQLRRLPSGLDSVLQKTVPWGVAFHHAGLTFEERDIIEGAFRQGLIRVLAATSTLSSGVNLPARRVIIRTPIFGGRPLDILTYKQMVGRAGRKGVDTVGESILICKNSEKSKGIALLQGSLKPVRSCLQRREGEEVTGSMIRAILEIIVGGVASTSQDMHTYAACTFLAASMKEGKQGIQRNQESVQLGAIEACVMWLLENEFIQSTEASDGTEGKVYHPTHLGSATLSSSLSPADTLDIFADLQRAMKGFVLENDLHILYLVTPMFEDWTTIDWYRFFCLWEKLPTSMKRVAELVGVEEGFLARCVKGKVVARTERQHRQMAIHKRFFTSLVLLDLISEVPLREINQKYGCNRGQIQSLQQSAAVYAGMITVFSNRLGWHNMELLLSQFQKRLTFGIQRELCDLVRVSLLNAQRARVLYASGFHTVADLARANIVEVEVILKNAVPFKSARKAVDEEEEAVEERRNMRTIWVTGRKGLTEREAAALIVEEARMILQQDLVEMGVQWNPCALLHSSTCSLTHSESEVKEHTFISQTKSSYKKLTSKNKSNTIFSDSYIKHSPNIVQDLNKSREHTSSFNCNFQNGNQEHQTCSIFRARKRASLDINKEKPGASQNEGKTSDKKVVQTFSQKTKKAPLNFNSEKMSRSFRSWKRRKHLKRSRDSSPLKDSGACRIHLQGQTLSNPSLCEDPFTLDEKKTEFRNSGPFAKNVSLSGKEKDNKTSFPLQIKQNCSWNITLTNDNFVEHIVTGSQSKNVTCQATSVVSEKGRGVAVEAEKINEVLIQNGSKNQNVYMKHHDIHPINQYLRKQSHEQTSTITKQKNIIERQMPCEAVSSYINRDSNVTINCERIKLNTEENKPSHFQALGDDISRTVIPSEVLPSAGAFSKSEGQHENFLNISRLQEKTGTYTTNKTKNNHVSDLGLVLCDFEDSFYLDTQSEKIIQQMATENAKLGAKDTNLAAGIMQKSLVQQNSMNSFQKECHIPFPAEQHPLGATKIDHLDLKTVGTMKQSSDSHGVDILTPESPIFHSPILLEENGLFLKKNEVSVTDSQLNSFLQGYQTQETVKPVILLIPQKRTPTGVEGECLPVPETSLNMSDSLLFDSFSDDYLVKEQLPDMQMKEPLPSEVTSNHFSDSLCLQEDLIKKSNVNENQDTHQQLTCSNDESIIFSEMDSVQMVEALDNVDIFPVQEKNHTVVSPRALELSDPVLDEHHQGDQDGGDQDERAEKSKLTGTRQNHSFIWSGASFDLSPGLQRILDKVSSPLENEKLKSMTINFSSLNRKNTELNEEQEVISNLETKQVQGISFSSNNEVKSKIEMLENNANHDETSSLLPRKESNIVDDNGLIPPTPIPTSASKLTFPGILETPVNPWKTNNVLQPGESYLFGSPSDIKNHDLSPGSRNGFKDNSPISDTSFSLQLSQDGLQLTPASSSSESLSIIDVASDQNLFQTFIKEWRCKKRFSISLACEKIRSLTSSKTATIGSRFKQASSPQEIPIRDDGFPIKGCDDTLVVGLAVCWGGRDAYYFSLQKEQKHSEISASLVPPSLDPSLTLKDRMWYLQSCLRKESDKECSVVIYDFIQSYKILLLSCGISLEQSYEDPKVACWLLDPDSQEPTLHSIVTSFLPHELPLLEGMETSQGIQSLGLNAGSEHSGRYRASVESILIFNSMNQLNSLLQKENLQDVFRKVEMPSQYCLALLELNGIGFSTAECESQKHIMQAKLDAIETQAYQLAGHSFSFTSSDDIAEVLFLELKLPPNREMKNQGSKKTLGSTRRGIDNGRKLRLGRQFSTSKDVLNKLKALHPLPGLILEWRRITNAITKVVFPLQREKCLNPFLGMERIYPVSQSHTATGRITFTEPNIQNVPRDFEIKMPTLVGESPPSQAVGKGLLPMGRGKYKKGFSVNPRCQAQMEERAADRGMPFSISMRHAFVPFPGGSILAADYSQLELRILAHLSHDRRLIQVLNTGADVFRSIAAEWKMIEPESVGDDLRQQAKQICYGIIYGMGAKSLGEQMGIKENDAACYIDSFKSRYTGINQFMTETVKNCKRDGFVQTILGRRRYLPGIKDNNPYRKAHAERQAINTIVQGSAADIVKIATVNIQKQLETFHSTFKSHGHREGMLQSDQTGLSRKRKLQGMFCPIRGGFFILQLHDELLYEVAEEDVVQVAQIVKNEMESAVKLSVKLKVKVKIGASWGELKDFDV
CC(Oc1ccccc1)C(=O)N[C@@H]1C(=O)N2[C@@H]1SC(C)(C)[C@@H]2C(=O)O (stereo partly shown): 96.9%
C[C@@H](NCCc1ccc(O)cc1)[C@@H](O)c1ccc(O)cc1 (racemic): 102%
CCSc1ccc2c(c1)N(CCCN1CCN(C)CC1)c1ccccc1S2: 106%
COc1ccccc1OCC(O)CO (stereo not shown): 101%

Block 3 — host: mouse; sample: microsomes or S9; tested at: 2 µM; time: 0.5 h; measurement: remaining compound
CN(C(=O)CN1CCc2nc(N3CCCC3)[nH]c(=O)c2C1)C1CCCCC1: 9.25%
O=C(c1ccccc1)c1cc2occ(-c3ccccc3)c2cc1O: 1.62%
CC(Cn1cc(Br)cn1)c1nc2c3cnn(C)c3ncn2n1 (stereo not shown): 0.0889%
CCC(=O)c1ccc(CCCCCC(=O)O)s1: 31.3%
Clc1ccc(C2=NOC(COc3cccc(Cl)c3Cl)CC2n2cncn2)cc1 (stereo not shown): 29.2%

Block 4 — organism: Sarcocystis neurona; effect on: parasite activity; tested at: 10 µM; time: 96 h; measurement: activity class
CC1(C)S[C@@H]2[C@H](NC(=O)[C@H](N)c3ccccc3)C(=O)N2[C@H]1C(=O)O: inactive
NS(=O)(=O)c1cc(C(=O)O)c(NCc2ccco2)cc1Cl: inactive
CSc1nc2cc(Cl)c(Oc3cccc(Cl)c3Cl)cc2[nH]1: inactive
CC(CCc1ccccc1)NCC(O)c1ccc(O)c(C(N)=O)c1 (stereo not shown): inactive

Block 5 — tested at: 5 µM; measurement: remaining activity
Structure (SMILES): O=C(Nc1cnn(-c2csc(C(=O)NC3COC3)c2)c1)Nc1c(F)cccc1Cl
CAMK2D (Homo sapiens, UniProt Q13557); enzyme activity; relative to: untreated control: 92.9%
NEK11 (Homo sapiens, UniProt Q8NG66); enzyme activity; relative to: untreated control: 88.7%
Tyrosine-protein kinase Lyn, isoform B (LYN, Homo sapiens, UniProt P07948); kinase activity, kinase panel profiling: 82.8%
Cyclin-dependent kinase 2, with cyclin A (CDK2, Homo sapiens, UniProt P24941); enzyme activity; relative to: untreated control: 91.3%

Repeated from above (block 1):
Cc1noc([C@H]2C[C@@H](c3ccc(C(F)(F)F)cc3)CN(C(=O)N3CCS(=O)(=O)C3)C2)n1: -4.12%
CN(C)CC#Cc1ccc(OCCCc2sc(N3CCc4cccc(C(=O)Nc5nc6ccccc6s5)c4C3)nc2C(=O)O)c(F)c1: -19.1%
Cn1nc(C(=O)NCc2ccc(C(=O)O)cc2)cc1-c1ccc2[nH]ccc2c1: -13.8%
O=C(NCCCC1CCCCC1)c1ccc(CNC(=O)c2cnn(-c3ccccc3)c2C(F)(F)F)cc1: 17.9%
